# Measurements pooled from the literature.
# Every numbered part comes from another study and shows a few of its results, in no order.

# Study 1
# Target: Histone acetyltransferase KAT6A, both winged helices, GST fusion (KAT6A, Homo sapiens, UniProt Q92794, residues 1-181)
# Technique: protein binding microarray
# Molecule type: double-stranded DNA, one strand shown
# Sample: in vitro
# Tested at: not given
# Setting: 8-mer, flanks averaged, mean of 2 arrays, mostly near background
# Relative to: not given
# Direction: higher = stronger binding
# Target sequence (chain): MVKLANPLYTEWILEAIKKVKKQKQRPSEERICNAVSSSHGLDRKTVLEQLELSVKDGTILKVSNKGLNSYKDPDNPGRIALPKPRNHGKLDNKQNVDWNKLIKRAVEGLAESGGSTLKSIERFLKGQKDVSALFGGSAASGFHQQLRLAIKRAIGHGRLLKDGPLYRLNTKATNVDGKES
Sequence,E-score
CGCAATTC,0.237
ATATAGCC,-0.105
AGTAGGCC,-0.112
ATTATTGA,-0.166
AGCGCTGC,0.309
GGTGATTA,0.0232
GCCATCCC,-0.0856
CGTGTTCA,0.198
CTAGGGCA,-0.165
ATGATACA,-0.0474
ATTGGTAC,-0.0757
AGTGCGGG,0.12
GGCCTTGA,-0.15
GGCACCCA,-0.0662
CCCCCACG,-0.00518
AGTAGACA,-0.102
ATCATCAG,-0.0548
CTGGTGAC,-0.114
ACCACCAA,-0.153
ATCTATCC,-0.0453
GACCATGC,0.0163
AGTTAGCA,-0.136
CTGCAACC,-0.0686
AGGATTAA,-0.0557
ACCCACAC,-0.108

# Study 2
# Target: RNA binding protein fox-1 homolog 2, RRM domain, GST-SBP tag (RBFOX2, Homo sapiens, UniProt O43251-10, residues 100-194)
# Technique: RNA Bind-n-Seq
# Molecule type: RNA
# Sample: in vitro
# Tested at: 365 nM
# Setting: natural RNA segment, single round, ends assumed
# Relative to: no-protein control
# Direction: higher = stronger binding
# Target sequence (chain): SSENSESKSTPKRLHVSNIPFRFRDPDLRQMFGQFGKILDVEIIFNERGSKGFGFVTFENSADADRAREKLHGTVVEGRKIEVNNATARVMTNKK
Sequence,RBNS enrichment (R)
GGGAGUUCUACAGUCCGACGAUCUCUUAAGAGUCCCUGCAUGUAAAUCUCAAAGCUGAGCCUGGCUCCCAGAGUCCAGACUGACAUUACAGCGCAAGAGUUUGCAAGUGUGUCCAGCAUGCACCAACUGUGCAUGGAAUUCUCGGGUGCCAA,4
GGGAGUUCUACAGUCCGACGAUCAAAAAAAUUCAAGUUUUGUUCUUAGGAUGUCCAAUAGAAGAUAACUGUGGAUGAUAACUAAUUCUAAUUGUUGAAGGGGGAAAAAAACCCAAACCUUGGCCUUUCUGCAAUGGAAUUCUCGGGUGCCAA,0.796
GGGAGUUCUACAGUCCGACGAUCCUCCCACUGCACACAGGGUGGUGGCACAUUAUCCCUCUGGGGGGUGGGGACGCCUGUUGUUUUGGCUCAAUUUGGGUUUGUUGGUCACAUGGAGCUCUUCCAUUUCGUUUUGGAAUUCUCGGGUGCCAA,1.09
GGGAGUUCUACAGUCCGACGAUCUCUGUGUUCUUUGUUACUUGGGUGCAAUAGCAACUUCCCUACCCCGUGCAUUCCAUCUUUCAUGUUGUGUAAAGUUCUUCACUUUUUUCUCUGAGGGCUGGGGGUUGGGGUGGAAUUCUCGGGUGCCAA,0.394
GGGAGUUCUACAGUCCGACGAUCGUCAUAGGUAAUUUGGAACAUUUACAAGCCAUUUGUAAAAUUUUAAGAUAAUCUGUAACUAAUACAUAAAAACAACUUAGCAAAUGUGCCAUUUUCACACAACUUCUCUCUGGAAUUCUCGGGUGCCAA,0.346
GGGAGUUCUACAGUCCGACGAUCUUAUGGGUACAUUCAAGACAAGAGUGUUCCAUUGACUGCAGCUAUCCAAGGACCGCCUGUUCAUAAGCUAUGCUCCAGAGGCUGCCGAUUCACUCGUGUGCACGGAGGGGUGGAAUUCUCGGGUGCCAA,6.39
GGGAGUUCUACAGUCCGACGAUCUUUUGUUGGUUUUGAAACACUCCCCCAGUUCUAGCUGUACCCCAGAAAAACAAAUACUUUCUUGAUCAAUAUGUAAAGCCAGGAAGUUGGUAAGAGUGACUGAGUAGCCUUGGAAUUCUCGGGUGCCAA,0.324
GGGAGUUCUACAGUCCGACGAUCGCUAUUUGCCUGGCUCCAGCAGAUGAUGAGAUAAUGAGGUAGUGGGUUUUUUAUUACUGUUCCAUUUUGCAACAUCCUGCAACACCAUCCUGGGAGACAAGAGCAUUACCUGGAAUUCUCGGGUGCCAA,0.492

# Study 3
# Target: Interferon regulatory factor 5, full length, phosphomimetic (IRF5, Homo sapiens, UniProt Q13568-2, residues 1-514, K96S/S451D/S453D/S456D/S462D)
# Technique: protein-binding microarray
# Molecule type: double-stranded DNA, one strand shown
# Sample: in vitro
# Tested at: 250 nM
# Setting: 60-bp whole probe
# Added: salmon DNA 0.4 mg/ml
# Relative to: random background probes
# Direction: higher = stronger binding
# Shared flanks, not repeated: GCCTAGCAC … GTCTTGATTCGCTTGACGCTGCTG
Sequence,log fluorescence [z-score]
TTAGGTTTCGACTTGCGGTTAGTGCTA,7.21
TTAGATTTCAGACTGAATTAGTGCTAG,0.752
GACGGTATAGACTTTCGGGACGTGCTA,4.31
TTAGGATTGGACACTGGGTTAGTGCTA,-0.178
GACGGTCTCGGACGGGGGACGTGCTAG,0.407
TCATAACTCATTCTCCAACTGTGCTAG,0.374
AGTATTACCTCATCTTTCCCTGTGCTA,0.796
ATAGGTTTCGGTTCCGGTTAGTGCTAG,10.4
GAGGGTCTCCTTTTCCTGACGTGCTAG,-0.532
ATAGATTTCGGGTATCGATTAGTGCTA,7.52
TTAGATATCGAGTTTCGATTAGTGCTA,9.16
GACGGACTGGGTCTCGGCACGTGCTAG,-0.683
TTAGGTTCCTTTTTCCTTTAGTGCTAG,0.882
TCACATTTGGTTAGCGTACTGTGCTAG,0.341
TCACTCCTCCAGGTTCTCACTGTGCTA,0.491
TTAGATATCGGTACTGGATTAGTGCTA,4.32
TTAGGTCTCCTTAACCTTTAGTGCTAG,-0.304
GACGGTCTAGGACTGGGGACGTGCTAG,-0.33
TTAGATATCAGTCTCGATTAGTGCTAG,2.22

# Study 4
# Target: Hepatocyte nuclear factor 3-alpha (Foxa1, Mus musculus, UniProt P35582, residues 1-468, full length assumed)
# Technique: EMSA with sequencing
# Molecule type: double-stranded DNA, one strand shown
# Sample: in vitro
# Tested at: 10 and 20 nM
# Setting: whole designed probe, mean of two concentrations, ends assumed
# Relative to: negative control set to 0
# Direction: higher = stronger binding
# Target sequence (chain): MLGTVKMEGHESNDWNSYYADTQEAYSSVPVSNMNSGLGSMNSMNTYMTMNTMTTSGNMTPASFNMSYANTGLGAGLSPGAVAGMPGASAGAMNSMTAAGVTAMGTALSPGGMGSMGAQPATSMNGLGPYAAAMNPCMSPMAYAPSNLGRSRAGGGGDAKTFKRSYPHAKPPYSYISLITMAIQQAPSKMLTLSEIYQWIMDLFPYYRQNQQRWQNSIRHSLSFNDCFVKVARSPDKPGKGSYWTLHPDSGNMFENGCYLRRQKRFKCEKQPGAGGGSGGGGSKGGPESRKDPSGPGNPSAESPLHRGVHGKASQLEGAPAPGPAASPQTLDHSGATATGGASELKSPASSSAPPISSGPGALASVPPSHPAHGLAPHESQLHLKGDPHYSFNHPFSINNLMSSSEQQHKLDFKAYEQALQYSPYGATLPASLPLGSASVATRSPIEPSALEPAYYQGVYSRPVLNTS
Sequence,normalised bound fraction [ratio]
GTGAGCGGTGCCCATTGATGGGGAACCACTCGGCTCCCCAGAGGTCAGCGCACCCCAAGCCCAGAGGCCGGCTGGCCTCGGCACGTCTCACTCCACTATCTTCCCTCCTCCCTGAACTCAGATTACACAAGGCTGGTCTTGGCTCTGAGGCTGCTAGATTTTAAATGCAATCTCACTGGTGACTCACTGGTGCATCGTCATTTGGCTTTGCCTGGAATTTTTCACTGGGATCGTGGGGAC,-0.0364
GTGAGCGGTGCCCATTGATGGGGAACCCTTGTATTCTTCAGATCTCATTTTCCCCCAAATTTCTGCAGTGGTTGGCTTCCATTTCAGCATCAGTCACGAAATCTTGATGCTCAGACACAGTAAACAGGGAAGGACATAAAATTAAGTGATTTGGGCGTAGTTTTGAGTCTCACAACTTTAACAGGGATGAGTCATACATTAAAGTATGTCGAAATAAATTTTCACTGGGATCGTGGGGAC,0.0571
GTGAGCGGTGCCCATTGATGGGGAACATGAAGGGCTGCCAGTGTAATTTGAACCTCAAATAAACAACAGATAAAACTGTAGTATAAGTATGTCCCATATACATTGCACAACGATCTTTTTGTTTGCCTAATCTGGCAAAGATATTGACTTAACACACACTAATCTGTTGACAGGTAGGTGAAATATTTGAACTTCTACGTTGCTTCTCTAATCCTGTCCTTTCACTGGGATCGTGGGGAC,0.391
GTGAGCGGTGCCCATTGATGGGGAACATCTTCCCCCTCTTCCTTGCCCCACCAGCTCACCTTCCCGGGTTATTTGCAGATAGGAAAATAAATAAAGCCGGCATTCGTTAACCCTCTTCTGGCGCAAACTTCAGTGCTCGTGTGAGTTTACATGGTCCTTTGGCGACGCCAGGCTCCGGGAGAGCAAAGCACCGTGTCAGGGCCATGATCCGGGGTGGCCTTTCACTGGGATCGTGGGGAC,0.347
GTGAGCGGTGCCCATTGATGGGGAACTAATTCAGATTAAAAAACAAAACGCCCTCTTTTTGGACCTCCAAATTAATTCTGACCATGTCAGAGTGAGAACAAAAGATCCTAGTGTAATTCTTGTTTACATTTTGGACCAACACGCGGTTTTCTTTTCATAGCCTTCCCGCATATGAGAACAAGATGACGCCTCTGTCTGTCCCAAGCCAGGCCCAGGGACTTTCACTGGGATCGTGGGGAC,0.334

# Repeated from above (study 4):
Sequence,normalised bound fraction [ratio]
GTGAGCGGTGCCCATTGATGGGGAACCACTCGGCTCCCCAGAGGTCAGCGCACCCCAAGCCCAGAGGCCGGCTGGCCTCGGCACGTCTCACTCCACTATCTTCCCTCCTCCCTGAACTCAGATTACACAAGGCTGGTCTTGGCTCTGAGGCTGCTAGATTTTAAATGCAATCTCACTGGTGACTCACTGGTGCATCGTCATTTGGCTTTGCCTGGAATTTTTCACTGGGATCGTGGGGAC,-0.0364
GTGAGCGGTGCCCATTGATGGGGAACCCTTGTATTCTTCAGATCTCATTTTCCCCCAAATTTCTGCAGTGGTTGGCTTCCATTTCAGCATCAGTCACGAAATCTTGATGCTCAGACACAGTAAACAGGGAAGGACATAAAATTAAGTGATTTGGGCGTAGTTTTGAGTCTCACAACTTTAACAGGGATGAGTCATACATTAAAGTATGTCGAAATAAATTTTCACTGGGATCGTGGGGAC,0.0571
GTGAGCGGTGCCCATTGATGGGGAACATGAAGGGCTGCCAGTGTAATTTGAACCTCAAATAAACAACAGATAAAACTGTAGTATAAGTATGTCCCATATACATTGCACAACGATCTTTTTGTTTGCCTAATCTGGCAAAGATATTGACTTAACACACACTAATCTGTTGACAGGTAGGTGAAATATTTGAACTTCTACGTTGCTTCTCTAATCCTGTCCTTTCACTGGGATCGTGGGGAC,0.391
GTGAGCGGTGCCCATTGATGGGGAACATCTTCCCCCTCTTCCTTGCCCCACCAGCTCACCTTCCCGGGTTATTTGCAGATAGGAAAATAAATAAAGCCGGCATTCGTTAACCCTCTTCTGGCGCAAACTTCAGTGCTCGTGTGAGTTTACATGGTCCTTTGGCGACGCCAGGCTCCGGGAGAGCAAAGCACCGTGTCAGGGCCATGATCCGGGGTGGCCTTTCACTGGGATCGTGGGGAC,0.347
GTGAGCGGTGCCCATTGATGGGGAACTAATTCAGATTAAAAAACAAAACGCCCTCTTTTTGGACCTCCAAATTAATTCTGACCATGTCAGAGTGAGAACAAAAGATCCTAGTGTAATTCTTGTTTACATTTTGGACCAACACGCGGTTTTCTTTTCATAGCCTTCCCGCATATGAGAACAAGATGACGCCTCTGTCTGTCCCAAGCCAGGCCCAGGGACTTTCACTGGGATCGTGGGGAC,0.334
